Assay results pooled from the literature.
Parts stem from different laboratories: compare values within a part only.
Chain of UniProt P06493 (whole entry, looked up): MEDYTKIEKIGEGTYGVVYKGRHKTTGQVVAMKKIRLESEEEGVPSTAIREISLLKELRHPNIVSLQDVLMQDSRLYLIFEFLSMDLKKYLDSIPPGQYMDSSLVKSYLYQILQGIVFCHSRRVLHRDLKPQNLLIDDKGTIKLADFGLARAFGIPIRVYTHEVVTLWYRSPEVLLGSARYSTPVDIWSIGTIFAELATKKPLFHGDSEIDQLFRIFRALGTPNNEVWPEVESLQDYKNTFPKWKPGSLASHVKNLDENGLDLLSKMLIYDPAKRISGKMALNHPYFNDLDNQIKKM
Chain of UniProt P42336 (whole entry, unmodified, looked up): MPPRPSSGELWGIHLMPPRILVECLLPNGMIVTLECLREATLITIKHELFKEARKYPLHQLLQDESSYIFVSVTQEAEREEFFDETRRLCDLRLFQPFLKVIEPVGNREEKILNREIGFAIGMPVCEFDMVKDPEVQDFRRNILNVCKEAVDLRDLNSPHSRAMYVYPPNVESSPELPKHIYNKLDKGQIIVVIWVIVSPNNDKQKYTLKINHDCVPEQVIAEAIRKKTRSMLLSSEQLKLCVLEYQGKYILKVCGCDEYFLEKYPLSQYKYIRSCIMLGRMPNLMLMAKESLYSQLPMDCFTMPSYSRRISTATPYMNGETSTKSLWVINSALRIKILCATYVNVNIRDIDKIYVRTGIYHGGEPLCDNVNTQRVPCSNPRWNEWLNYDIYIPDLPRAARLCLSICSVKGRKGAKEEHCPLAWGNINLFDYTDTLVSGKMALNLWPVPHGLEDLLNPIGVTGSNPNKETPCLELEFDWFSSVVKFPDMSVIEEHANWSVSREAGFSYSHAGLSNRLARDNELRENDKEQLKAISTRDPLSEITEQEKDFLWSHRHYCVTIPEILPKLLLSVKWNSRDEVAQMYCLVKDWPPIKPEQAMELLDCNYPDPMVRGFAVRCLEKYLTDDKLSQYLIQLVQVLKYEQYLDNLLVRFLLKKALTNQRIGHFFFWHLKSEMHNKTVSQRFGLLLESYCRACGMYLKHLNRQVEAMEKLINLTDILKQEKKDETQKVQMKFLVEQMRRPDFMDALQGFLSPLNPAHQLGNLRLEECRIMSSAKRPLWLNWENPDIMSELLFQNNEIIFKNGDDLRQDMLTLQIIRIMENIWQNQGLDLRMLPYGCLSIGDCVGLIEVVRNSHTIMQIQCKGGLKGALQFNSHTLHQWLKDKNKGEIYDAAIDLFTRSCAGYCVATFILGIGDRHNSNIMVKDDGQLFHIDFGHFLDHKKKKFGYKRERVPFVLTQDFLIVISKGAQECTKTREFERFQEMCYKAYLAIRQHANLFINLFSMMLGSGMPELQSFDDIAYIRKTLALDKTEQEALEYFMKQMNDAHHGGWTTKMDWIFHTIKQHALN
Chain of UniProt Q6P2M8 (whole entry, looked up): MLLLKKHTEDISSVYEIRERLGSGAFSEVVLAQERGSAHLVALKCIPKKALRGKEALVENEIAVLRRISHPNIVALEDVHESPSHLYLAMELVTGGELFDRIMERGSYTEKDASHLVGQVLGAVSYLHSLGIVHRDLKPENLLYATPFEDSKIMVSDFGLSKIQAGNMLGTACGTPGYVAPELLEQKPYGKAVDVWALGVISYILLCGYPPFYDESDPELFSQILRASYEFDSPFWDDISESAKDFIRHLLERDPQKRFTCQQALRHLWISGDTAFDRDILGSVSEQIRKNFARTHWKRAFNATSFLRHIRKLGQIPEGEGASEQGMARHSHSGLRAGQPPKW
Chain of UniProt Q6PHR2 (whole entry, looked up): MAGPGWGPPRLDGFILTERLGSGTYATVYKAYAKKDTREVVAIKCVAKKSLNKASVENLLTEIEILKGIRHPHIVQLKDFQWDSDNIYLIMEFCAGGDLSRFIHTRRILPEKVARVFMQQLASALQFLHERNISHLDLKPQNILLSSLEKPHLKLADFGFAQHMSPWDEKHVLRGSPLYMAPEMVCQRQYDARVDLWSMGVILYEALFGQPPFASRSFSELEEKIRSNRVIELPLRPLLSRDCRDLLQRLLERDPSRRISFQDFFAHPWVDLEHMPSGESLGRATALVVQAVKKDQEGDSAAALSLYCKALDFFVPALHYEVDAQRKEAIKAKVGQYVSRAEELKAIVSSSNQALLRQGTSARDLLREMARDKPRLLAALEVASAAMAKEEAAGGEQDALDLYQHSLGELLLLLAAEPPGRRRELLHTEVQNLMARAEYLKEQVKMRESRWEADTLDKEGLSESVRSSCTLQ
Chain of UniProt P50750 (whole entry, looked up): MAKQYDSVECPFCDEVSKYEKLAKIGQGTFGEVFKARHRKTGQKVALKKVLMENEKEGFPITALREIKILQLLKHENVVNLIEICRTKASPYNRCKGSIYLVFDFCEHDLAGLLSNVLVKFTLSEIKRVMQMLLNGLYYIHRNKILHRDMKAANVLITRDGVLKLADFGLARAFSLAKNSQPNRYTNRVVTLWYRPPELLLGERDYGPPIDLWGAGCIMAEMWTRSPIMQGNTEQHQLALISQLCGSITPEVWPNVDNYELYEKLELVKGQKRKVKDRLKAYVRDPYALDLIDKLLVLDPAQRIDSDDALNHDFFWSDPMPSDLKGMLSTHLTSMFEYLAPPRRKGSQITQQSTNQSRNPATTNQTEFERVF
Chain of UniProt Q02750 (whole entry, looked up): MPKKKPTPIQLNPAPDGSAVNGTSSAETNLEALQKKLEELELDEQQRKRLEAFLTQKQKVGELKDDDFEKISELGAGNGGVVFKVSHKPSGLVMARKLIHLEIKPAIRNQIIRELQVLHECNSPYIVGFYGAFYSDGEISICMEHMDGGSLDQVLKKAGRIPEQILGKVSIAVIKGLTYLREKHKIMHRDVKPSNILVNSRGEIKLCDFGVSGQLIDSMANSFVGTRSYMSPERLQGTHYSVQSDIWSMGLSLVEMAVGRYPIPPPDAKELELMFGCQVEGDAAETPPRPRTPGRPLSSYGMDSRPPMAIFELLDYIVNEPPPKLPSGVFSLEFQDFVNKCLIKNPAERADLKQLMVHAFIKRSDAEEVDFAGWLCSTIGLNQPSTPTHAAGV
Chain of UniProt P28482 (whole entry, looked up): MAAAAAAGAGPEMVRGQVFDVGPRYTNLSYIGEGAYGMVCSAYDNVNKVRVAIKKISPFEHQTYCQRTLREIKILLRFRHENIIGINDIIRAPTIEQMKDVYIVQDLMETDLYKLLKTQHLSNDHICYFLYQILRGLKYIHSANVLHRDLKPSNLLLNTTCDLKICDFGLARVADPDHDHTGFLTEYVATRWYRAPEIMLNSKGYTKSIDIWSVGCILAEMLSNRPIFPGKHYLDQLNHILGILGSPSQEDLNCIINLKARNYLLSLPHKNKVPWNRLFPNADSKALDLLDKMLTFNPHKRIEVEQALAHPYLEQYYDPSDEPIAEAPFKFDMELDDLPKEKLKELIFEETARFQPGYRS
Chain of UniProt Q96L34 (whole entry, looked up): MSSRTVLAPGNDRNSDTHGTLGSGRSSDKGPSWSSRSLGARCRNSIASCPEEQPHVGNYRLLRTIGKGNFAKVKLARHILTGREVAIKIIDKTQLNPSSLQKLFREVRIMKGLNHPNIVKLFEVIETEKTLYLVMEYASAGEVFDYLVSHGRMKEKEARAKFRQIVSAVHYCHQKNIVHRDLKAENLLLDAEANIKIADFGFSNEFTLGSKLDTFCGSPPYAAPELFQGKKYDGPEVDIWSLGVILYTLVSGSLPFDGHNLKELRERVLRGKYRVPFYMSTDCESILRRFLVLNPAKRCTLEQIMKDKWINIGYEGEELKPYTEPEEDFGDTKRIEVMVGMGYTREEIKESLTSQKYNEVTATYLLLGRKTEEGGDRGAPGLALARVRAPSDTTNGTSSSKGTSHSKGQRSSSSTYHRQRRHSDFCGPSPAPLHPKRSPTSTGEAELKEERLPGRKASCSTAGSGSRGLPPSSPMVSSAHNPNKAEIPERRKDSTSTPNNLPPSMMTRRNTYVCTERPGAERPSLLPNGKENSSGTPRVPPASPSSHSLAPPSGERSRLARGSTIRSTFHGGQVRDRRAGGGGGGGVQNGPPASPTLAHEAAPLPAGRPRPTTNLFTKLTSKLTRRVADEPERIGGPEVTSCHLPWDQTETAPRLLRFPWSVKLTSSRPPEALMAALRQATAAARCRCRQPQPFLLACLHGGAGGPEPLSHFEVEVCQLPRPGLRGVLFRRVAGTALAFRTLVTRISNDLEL
Chain of UniProt Q16832 (whole entry, looked up): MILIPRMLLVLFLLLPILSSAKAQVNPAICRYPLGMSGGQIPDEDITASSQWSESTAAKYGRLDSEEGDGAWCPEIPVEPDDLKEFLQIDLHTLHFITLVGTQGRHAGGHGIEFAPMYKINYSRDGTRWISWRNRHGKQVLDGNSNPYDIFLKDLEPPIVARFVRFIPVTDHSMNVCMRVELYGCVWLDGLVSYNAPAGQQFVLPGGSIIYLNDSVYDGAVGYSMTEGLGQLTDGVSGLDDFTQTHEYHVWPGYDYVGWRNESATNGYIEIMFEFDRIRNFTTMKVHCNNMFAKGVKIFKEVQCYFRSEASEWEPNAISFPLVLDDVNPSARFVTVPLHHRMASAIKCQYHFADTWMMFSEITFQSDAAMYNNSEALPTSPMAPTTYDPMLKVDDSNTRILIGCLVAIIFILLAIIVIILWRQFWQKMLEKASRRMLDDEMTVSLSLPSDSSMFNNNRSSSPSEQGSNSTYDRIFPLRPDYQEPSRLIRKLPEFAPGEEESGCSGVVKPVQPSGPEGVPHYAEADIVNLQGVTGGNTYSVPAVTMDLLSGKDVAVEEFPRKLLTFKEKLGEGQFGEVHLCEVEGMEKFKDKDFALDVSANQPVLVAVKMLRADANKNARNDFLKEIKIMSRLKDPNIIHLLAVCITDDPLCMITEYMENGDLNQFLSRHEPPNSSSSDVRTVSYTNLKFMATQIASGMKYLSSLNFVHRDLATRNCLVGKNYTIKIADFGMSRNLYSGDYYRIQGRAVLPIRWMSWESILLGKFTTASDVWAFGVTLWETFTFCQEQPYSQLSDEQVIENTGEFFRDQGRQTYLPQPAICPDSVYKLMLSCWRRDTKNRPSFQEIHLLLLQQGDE

Series 1
Host: mouse
Medium: microsomes or S9
Tested at: 2 µM
Time: 0.5 h
Quantity: remaining compound
Nc1ccc(C(=O)NC2CCc3ccccc32)cc1 (stereo not shown): 58.1%
CCOc1cc(CNCCCN2CCOCC2)cc(Br)c1OCc1ccccc1Cl: 5.9%
COc1ccc(-c2ncnc3nc4n(c23)CCC4)cc1: 0.306%
COCCNS(=O)(=O)c1cc(C(=O)O)cc(-c2cccc(F)c2F)c1: 92.2%
CCn1c(N)c(-c2nc3ccccc3[nH]2)c(=O)c2ccccc21: 17.3%
Cc1c(-c2cc[nH]n2)c2c(C)cccn2c1-c1ccccc1: 5.34%
Cc1cnc(-c2nc(NCCc3ccncc3)ncc2-c2onc(C)c2C)cn1: 7.35%

Series 2
SMILES: CCN(CC)CCNC(=O)c1c(C)[nH]c(/C=C2\C(=O)Nc3ccc(F)cc32)c1C
Read-out: enzyme activity
Mode: inhibitor
Tested at: 0.5 µM
Relative to: control
Quantity: remaining activity
DDR2 (Homo sapiens, UniProt Q16832): 154%
TXK (Homo sapiens, UniProt P42681): 92.6%
ROCK1 (Homo sapiens, UniProt Q13464): 99.7%
MARK4 (Homo sapiens, UniProt Q96L34): 24.7%
Cyclin-dependent kinase 9, with cyclin K (CDK9, Homo sapiens, UniProt P50750): 80.2%
PNCK (Homo sapiens, UniProt Q6P2M8): 98.5%
MAP2K1 (Homo sapiens, UniProt Q02750): 67.8%
Cyclin-dependent kinase 1, with cyclin A (CDK1, Homo sapiens, UniProt P06493): 98.4%
PRKG2 (Homo sapiens, UniProt Q13237): 96.1%
CAMK4 (Homo sapiens, UniProt Q16566): 88.6%
MINK1 (Homo sapiens, UniProt Q8N4C8): 10.5%
PLK3 (Homo sapiens, UniProt Q9H4B4): 96.5%
Myosin-IIIb (MYO3B, Homo sapiens, UniProt Q8WXR4): 54.5%
MAPK14 (Homo sapiens, UniProt Q16539): 105%
CLK3 (Homo sapiens, UniProt P49761): 105%
CDC42BPB (Homo sapiens, UniProt Q9Y5S2): 101%
MAPK1 (Homo sapiens, UniProt P28482): 98.5%

Series 3
Structure (SMILES): CCCCN(CCCC)C(=O)CN1C[C@H](c2cc(OC)c3c(c2)OCO3)[C@@H](C(=O)O)[C@@H]1CC(C)(C)CCC
Read-out: cell-free assay
Technique: competition with immobilised ligand
Tested at: 1 µM
Quantity: remaining binding
Tyrosine-protein kinase ABL1, phosphorylated (ABL1, Homo sapiens, UniProt P00519, H396P): 96.1%
MAP3K9 (Homo sapiens, UniProt P80192): 100%
ULK3 (Homo sapiens, UniProt Q6PHR2): 86.7%
AKT3 (Homo sapiens, UniProt Q9Y243): 100%
PIK3CA (Homo sapiens, UniProt P42336, Q546K): 67.3%
KIT (Homo sapiens, UniProt P10721, V559D/V654A): 100%
Non-receptor tyrosine-protein kinase TYK2, JH1 (TYK2, Homo sapiens, UniProt P29597): 100%
Ribosomal protein S6 kinase alpha-3, N-terminal kinase domain (RPS6KA3, Homo sapiens, UniProt P51812): 100%

Single results of other studies
Target: Serine/threonine-protein kinase mTOR (MTOR, Homo sapiens, UniProt P42345)
Technique: biochemical
Tested at: 1 µM
Cc1ccc(NC(=O)c2ccnc(C(F)(F)F)c2)cc1-c1cc(OCCO)nc(N2CCOCC2)c1  remaining activity: 99%
COc1ccc2[nH]c3c4[nH]c5ccc(OC)cc5c4c4c(c3c2c1)C(=O)NC4=O  remaining activity: 100%

A few entries again (series 2):
PNCK (Homo sapiens, UniProt Q6P2M8): 98.5%
MAP2K1 (Homo sapiens, UniProt Q02750): 67.8%
Cyclin-dependent kinase 1, with cyclin A (CDK1, Homo sapiens, UniProt P06493): 98.4%
PRKG2 (Homo sapiens, UniProt Q13237): 96.1%
CAMK4 (Homo sapiens, UniProt Q16566): 88.6%
